# Measurements pooled from the literature.
# A part holds a random share of what one study measured.
# Chain of UniProt Q5XXA6 (whole entry, unmodified, looked up): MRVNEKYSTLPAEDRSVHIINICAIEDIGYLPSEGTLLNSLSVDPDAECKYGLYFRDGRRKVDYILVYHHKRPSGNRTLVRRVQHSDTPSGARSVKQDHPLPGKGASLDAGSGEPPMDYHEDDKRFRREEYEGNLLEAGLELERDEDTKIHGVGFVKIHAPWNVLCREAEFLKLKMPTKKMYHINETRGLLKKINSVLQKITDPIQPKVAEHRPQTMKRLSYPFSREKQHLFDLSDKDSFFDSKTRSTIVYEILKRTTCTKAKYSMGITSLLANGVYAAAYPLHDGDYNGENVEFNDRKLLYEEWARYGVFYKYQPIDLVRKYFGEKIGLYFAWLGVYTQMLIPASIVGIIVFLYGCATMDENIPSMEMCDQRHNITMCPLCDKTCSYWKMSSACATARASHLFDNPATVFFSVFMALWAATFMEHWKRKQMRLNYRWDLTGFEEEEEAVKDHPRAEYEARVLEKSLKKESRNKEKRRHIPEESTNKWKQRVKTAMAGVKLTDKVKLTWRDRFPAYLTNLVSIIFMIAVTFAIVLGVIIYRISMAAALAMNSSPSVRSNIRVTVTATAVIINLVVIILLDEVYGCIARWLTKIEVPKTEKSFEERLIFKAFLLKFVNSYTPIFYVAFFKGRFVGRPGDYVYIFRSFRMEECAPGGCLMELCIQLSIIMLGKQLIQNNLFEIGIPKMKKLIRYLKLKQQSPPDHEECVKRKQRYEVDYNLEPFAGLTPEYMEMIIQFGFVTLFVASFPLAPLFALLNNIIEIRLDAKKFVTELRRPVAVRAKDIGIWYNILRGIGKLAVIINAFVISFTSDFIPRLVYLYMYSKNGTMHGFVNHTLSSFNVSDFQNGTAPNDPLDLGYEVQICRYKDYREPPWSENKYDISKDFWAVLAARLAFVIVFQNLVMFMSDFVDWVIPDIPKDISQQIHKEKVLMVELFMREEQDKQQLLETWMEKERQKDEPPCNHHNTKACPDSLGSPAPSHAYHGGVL

# Series 1 — action: antagonist
# Target: Beta-1 adrenergic receptor (ADRB1, Homo sapiens, UniProt P08588)
# Chain of UniProt P08588 (whole entry, looked up): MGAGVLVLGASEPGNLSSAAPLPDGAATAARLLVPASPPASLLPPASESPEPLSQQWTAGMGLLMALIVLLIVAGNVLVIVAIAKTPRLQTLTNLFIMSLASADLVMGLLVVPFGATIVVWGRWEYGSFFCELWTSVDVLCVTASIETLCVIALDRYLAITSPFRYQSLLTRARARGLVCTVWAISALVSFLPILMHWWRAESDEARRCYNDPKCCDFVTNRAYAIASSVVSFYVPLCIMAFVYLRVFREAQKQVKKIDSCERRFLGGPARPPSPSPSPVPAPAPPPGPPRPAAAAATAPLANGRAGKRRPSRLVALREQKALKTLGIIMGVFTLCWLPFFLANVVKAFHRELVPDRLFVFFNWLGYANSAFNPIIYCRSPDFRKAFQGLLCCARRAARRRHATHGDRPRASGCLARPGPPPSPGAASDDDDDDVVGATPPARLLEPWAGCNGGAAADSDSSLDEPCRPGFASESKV
SMILES,IC50
CN(C)CC(O)COc1ccc(CN2CCC(N3CCOC3=O)CC2)cc1 (stereo not shown),≥ 100 µM
OC1(c2nc(Nc3cccc(F)c3)n[nH]2)CCOCC1,≥ 100 µM
OC(c1ccccc1)c1nc(Nc2ccc(C(F)(F)F)cc2)n[nH]1 (stereo not shown),≥ 100 µM
CCn1ccnc1CN(C)Cc1cccc(OCC(O)CN(C)C2CCCCC2)c1 (stereo not shown),≥ 100 µM

# Series 2 — species: mouse; sample: microsomes or S9; concentration: 2 µM; time: 0.5 h
SMILES,remaining compound
CCC(C)c1ccc(O)c(NC(=O)c2nccnc2C(=O)O)c1 (stereo not shown),> 100%
CCCS(=O)(=O)c1nc2ccc(NS(=O)(=O)Cc3ccccc3)cc2s1,28.8%
O=C(C1CCOCC1)N1CCC(Oc2nccnc2N2CCOCC2)C1 (stereo not shown),0.215%
CCCc1cc(N2CCC3(CCC(=O)N(CCc4c[nH]cn4)C3)CC2)nc(C)n1,90.7%

# Series 3 — SMILES: C=CCc1ccc(O)c(-c2ccc(O)c(CC=C)c2)c1; read-out: chloride current; technique: whole-cell voltage clamp
target,action,notes,IC50 [µM]
"Anoctamin-1 (ANO1, Homo sapiens, UniProt Q5XXA6, del476-501/R561A)",,membrane voltage -100 mV,8.1
"Anoctamin-1 (ANO1, Homo sapiens, UniProt Q5XXA6, del476-501/R631D)",inhibitor,R605D mutant at -100 mV,27
"Anoctamin-1 (ANO1, Homo sapiens, UniProt Q5XXA6, del476-501/M544A)",,membrane voltage 20 mV,3.44
"Anoctamin-1 (ANO1, Homo sapiens, UniProt Q5XXA6, D383A/del476-501)",,membrane voltage -60 mV,14.3

# Further values, each from its own experiment
Compound,cell line,technique,concentration,time,measurement,result
N#CC1(c2ccccn2)CCN(Cc2cc(C(=O)N3CCCC3)c(=O)n3ccccc23)CC1,U2OS,Hoechst high-content imaging,10-fold recommended concentration,24 h,cells with bright nuclei,40%

# Excerpt of the above (further values, each from its own experiment):
Compound,cell line,technique,concentration,time,measurement,result
N#CC1(c2ccccn2)CCN(Cc2cc(C(=O)N3CCCC3)c(=O)n3ccccc23)CC1,U2OS,Hoechst high-content imaging,10-fold recommended concentration,24 h,cells with bright nuclei,40%
